{"data": "Experimental data from different studies", "ALB": "Albumin (ALB, Bos taurus, UniProt P02769)", "note": "± gives the spread as reported."}
{"target": "Glutamate carboxypeptidase 2 (FOLH1, Homo sapiens, UniProt Q04609)", "system": "LNCaP", "conditions": "30 nM, 45 min, 177Lu-labelled", "measurement": "internalized amount", "result": "0.46 ± 0.12%", "Structure (SMILES)": "O=C(O)CCC(NC(=O)NC(CCCCNC(=O)C(Cc1ccc2ccccc2c1)NC(=O)C1CCC(CNC(=O)C(CCCCN(Cc2nccn2CC(=O)O)Cc2nccn2CC(=O)O)NC(=O)OCC2c3ccccc3-c3ccccc32)CC1)C(=O)O)C(=O)O (stereo not drawn)"}
{"target": "Unconventional myosin-Va (Gallus gallus, UniProt Q02440, D297C/G292C/I296C/S293C/V295G)", "test": "stopped-flow FRET", "conditions": "10 °C, added: MgCl2 10 mM", "measurement": "dissociation rate constant", "result": "1.59 ± 0.01 s⁻¹", "Structure (SMILES)": "CNc1ccccc1C(=O)O[C@H]1C[C@H](n2cnc3c(N)ncnc32)O[C@@H]1COP(=O)(O)OP(=O)(O)O"}
{"target": "ARF GTPase-activating protein GIT2 (GIT2, Homo sapiens, UniProt Q14161)", "test": "competitive pull-down LC-MS/MS, refers to: GIT2", "system": "M9-ENL1 cell lysate", "conditions": "added: probe 10 µM", "how to read": "reference: MCL-treated control", "measurement": "enrichment ratio", "result": "5.8 fold", "Structure (SMILES)": "C=C1C(=O)O[C@H]2[C@H]1CCC(COC(=O)CCCCCCCCCCCNC(=O)CCCC[C@@H]1SC[C@@H]3NC(=O)N[C@@H]31)=C1CC[C@@](C)(O)[C@@H]12"}
{"target": "(CUG)2 RNA", "test": "SPR", "measurement": "residence time", "result": "888 s", "Structure (SMILES)": "CCc1nc2cc3ccccc3cc2cc1C(=O)N1CCC[C@H]1C(=O)N[C@@H](C/C=C/C[C@H](NC(=O)[C@@H]1CCCN1C(=O)c1cc2cc3ccccc3cc2nc1CC)C(=O)N[C@@H](CCCCN)C(=O)NCCCN)C(=O)N[C@@H](CCCCN)C(=O)NCCCN"}
{"target": "Muscarinic acetylcholine receptor M4 (CHRM4, Homo sapiens, UniProt P08173)", "test": "recovery of [3H]NMS binding after washing", "system": "membranes", "conditions": "100 µM", "measurement": "dissociation half-time", "result": "4.3 ± 0.4 h", "Structure (SMILES)": "CCCCCCOc1ccc(C(=O)OCCN2CC=CCC2)cc1"}
{"target": "ALB", "test": "fluorescence quenching", "conditions": "pH 7.4, BSA 5 µM", "measurement": "Stern-Volmer constant", "result": "228000 ± 6000 M⁻¹", "Structure (SMILES)": "COC(=O)c1cnc(-c2cnccn2)cc1C(=O)OC.COC(=O)c1cnc(-c2cnccn2)cc1C(=O)OC.O.O.O.O=S(=O)([O-])C(F)(F)F.O=S(=O)([O-])C(F)(F)F.[Cu+2]"}
{"target": "Disks large homolog 4, PDZ3 domain (Homo sapiens, UniProt P78352)", "test": "PDZ domain binding, fluorescence emission intensity", "system": "PSD-95 PDZ3 domain", "conditions": "4-DMAP-Dab at position -5", "how to read": "reference: probe without PDZ domain", "measurement": "relative fluorescence increase", "result": 62.6, "Structure (SMILES)": "CC(=O)N[C@@H](CC(N)=O)C(=O)N[C@@H](CCCNC(=N)N)C(=O)N[C@@H](CCCNC(=N)N)C(=O)N[C@@H](CC(N)=O)C(=O)N[C@H](C(=O)N[C@@H](C)C(=O)N[C@@H](CC(N)=O)C(=O)N[C@@H](CCN1C(=O)c2ccc(N(C)C)cc2C1=O)C(=O)N[C@@H](CCCNC(=N)N)C(=O)N[C@H](C(=O)N[C@H](C(=O)N1CCC[C@H]1C(=O)N[C@H](C(=O)O)C(C)C)[C@@H](C)O)[C@@H](C)O)[C@@H](C)O"}
{"target": "Amyloid-beta precursor protein (APP, Homo sapiens, UniProt P05067)", "test": "binding, PET", "system": "Alzheimer's disease patients, lateral temporal cortex", "conditions": "unit not given", "how to read": "reference: control subjects", "measurement": "effect size of DVR", "result": 5.37, "Structure (SMILES)": "[11CH3]Nc1ccc(-c2nc3ccc(O)cc3o2)cn1"}
{"target": "ALB", "test": "binding, fluorescence quenching", "conditions": "298 K", "measurement": "Gibbs free energy change", "result": "-3.87 kcal/mol", "Structure (SMILES)": "CCCCCCCCCCCCCCCC(=O)Nc1ccccc1SSc1ccccc1NC(=O)CCCCCCCCCCCCCCC"}
{"target": "Transient receptor potential cation channel subfamily A member 1 (Trpa1, Rattus norvegicus, UniProt Q6RI86, G878V/M949I)", "test": "calcium influx, agonist", "conditions": "G878V/M949I mutant, unit not given", "how to read": "reference: AITC", "measurement": "Emax", "result": "0.38 ± 0.06", "Structure (SMILES)": "O=C(NC[C@@H](Cc1ccc(F)cc1)N1CCC(O)(C(F)(F)F)CC1)C1(c2ccc(Cl)cc2)CCCC1"}
{"target": "ALB", "test": "binding, UV absorption titration, refers to: BSA band at 278 nm", "conditions": "pH 7.2, 25 °C", "how to read": "reference: free BSA", "measurement": "absorption band blue shift", "result": "6 nm", "Structure (SMILES)": "CC(=O)[O-].O.O.O.O.[Ni+2].[O-]c1ccc(Br)cc1C=NCCN1CCOCC1"}
{"target": "Neuropeptide Y receptor type 4 (NPY4R, Homo sapiens, UniProt P50391)", "test": "calcium mobilization, agonist, aequorin", "system": "CHO-hY4-Gqi5-mtAEQ", "conditions": "concentration not given, unit not given", "how to read": "reference: 1 µM human pancreatic polypeptide", "measurement": "intrinsic activity", "result": 0.61, "Structure (SMILES)": "CC(=O)N[C@@H](CCCNC(=N)N)C(=O)N[C@H](Cc1ccc(O)cc1)C(=O)N[C@@H](CCCNC(=N)NC(=O)NCCCCN)C(=O)N[C@@H](CC(C)C)C(=O)N[C@@H](CCCNC(=N)N)C(=O)N[C@@H](Cc1ccc(O)cc1)C(N)=O"}
{"note": "Excerpt of the above:"}
{"target": "Unconventional myosin-Va (Gallus gallus, UniProt Q02440, D297C/G292C/I296C/S293C/V295G)", "test": "stopped-flow FRET", "conditions": "10 °C, added: MgCl2 10 mM", "measurement": "dissociation rate constant", "result": "1.59 ± 0.01 s⁻¹", "Structure (SMILES)": "CNc1ccccc1C(=O)O[C@H]1C[C@H](n2cnc3c(N)ncnc32)O[C@@H]1COP(=O)(O)OP(=O)(O)O"}
